Measurements pooled from the literature.
Every numbered part comes from another study and shows a few of its results, in no order. Substitutions count along the parent as printed.

Study 1
Target: Sal-like protein 4, full length isoform A (SALL4, Homo sapiens, UniProt Q9UJQ4, residues 1-1053)
UniProt Q9UJQ4, sequence (whole entry, looked up): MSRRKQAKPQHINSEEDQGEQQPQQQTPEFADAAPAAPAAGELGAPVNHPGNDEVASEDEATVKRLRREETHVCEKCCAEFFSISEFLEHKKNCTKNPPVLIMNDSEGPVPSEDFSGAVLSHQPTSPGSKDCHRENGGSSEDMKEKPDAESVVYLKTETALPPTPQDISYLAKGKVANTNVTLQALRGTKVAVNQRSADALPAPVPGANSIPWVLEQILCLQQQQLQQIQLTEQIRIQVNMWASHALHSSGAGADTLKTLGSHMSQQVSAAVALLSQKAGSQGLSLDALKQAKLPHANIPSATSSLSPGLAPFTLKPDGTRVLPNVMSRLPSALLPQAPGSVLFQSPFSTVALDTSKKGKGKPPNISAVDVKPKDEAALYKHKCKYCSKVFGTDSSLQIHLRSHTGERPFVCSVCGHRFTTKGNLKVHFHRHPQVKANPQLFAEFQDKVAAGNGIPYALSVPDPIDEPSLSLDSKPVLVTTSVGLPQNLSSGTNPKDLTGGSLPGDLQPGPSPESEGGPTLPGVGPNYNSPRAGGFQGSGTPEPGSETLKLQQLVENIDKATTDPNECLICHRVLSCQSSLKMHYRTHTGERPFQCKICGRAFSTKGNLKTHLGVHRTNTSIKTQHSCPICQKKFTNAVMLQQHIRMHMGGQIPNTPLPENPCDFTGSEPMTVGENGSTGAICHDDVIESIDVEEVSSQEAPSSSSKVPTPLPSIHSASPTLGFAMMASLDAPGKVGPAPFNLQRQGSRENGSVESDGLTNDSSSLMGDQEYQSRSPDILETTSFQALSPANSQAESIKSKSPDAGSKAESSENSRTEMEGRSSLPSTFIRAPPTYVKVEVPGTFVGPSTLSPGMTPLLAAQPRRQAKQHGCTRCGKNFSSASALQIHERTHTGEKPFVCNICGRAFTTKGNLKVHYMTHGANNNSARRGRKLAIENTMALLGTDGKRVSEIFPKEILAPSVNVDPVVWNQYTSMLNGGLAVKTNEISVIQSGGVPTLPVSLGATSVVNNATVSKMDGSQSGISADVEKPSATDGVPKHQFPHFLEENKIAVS
Technique: universal PBM
Form: double-stranded DNA, one strand shown
Sample: in vitro
Tested at: 600 nM
Notes: 8-mer, flanks averaged, mean of replicates
Direction: higher = stronger binding
Measurement: E-score
AGCACTCG: -0.231
AGTTCAGA: 0.0931
TTAACTAA: 0.244
CTTACGTC: -0.195
AAAGACAG: 0.0914
CGCCTAAG: -0.242
ACTTACCA: 0.0701
AGTGGGTG: -0.0552
CCGCTATC: -0.0349
CAGCAGCG: -0.261
CCGTAAGA: -0.0987
CGTCGCAG: -0.298
ATTGAACC: 0.0854
CCCGATCC: -0.372
GTTTTCAA: 0.232
CACACCTG: -0.0952
GCTACTCC: -0.133
CAATGCTG: -0.0334
GATGTTAC: 0.114
AGTAGTCG: -0.0872
ACGTTGAT: 0.187
CCACCCGA: -0.213
ATCTACAG: 0.134
CTTGCAAG: -0.0297
CAAAGAAC: 0.145

Study 2
Target: Myc proto-oncogene protein, bHLH-zipper, MAX partner unstated (MYC, Homo sapiens, UniProt P01106, residues 368-449)
UniProt P01106, sequence (368-449, looked up): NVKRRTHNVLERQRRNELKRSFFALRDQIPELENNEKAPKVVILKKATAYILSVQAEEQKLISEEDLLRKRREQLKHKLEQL
Technique: protein-binding microarray
Form: double-stranded DNA, one strand shown
Sample: in vitro
Tested at: not given
Notes: k-mer, scored over probes, only values ≥0.25
Direction: higher = stronger binding
Measurement: E-score
ATGCATGG: 0.404
GACACGCC: 0.37
CGCGGTGC: 0.274
CGTGTTAG: 0.373
ATGCGTTC: 0.329
ATGAGGTC: 0.335
CGACCACG: 0.418
CGCCACGA: 0.356
CGCGGTCA: 0.251
CATGCAAC: 0.38
ATCATGAG: 0.254
GGGTGGAC: 0.319
ACGCGACT: 0.344
GCCACACC: 0.364

Study 3
Target: CCND1, cyclin fold, Cln2 fusion (human)
Technique: yeast growth competition, sequencing
Sample: yeast
Notes: weak parent motif
Reference: not given
Direction: higher = stronger binding
Measurement: normalised enrichment score
Starting sequence: MICAL3 docking peptide (human); LQLRRQLSFSEDS; partner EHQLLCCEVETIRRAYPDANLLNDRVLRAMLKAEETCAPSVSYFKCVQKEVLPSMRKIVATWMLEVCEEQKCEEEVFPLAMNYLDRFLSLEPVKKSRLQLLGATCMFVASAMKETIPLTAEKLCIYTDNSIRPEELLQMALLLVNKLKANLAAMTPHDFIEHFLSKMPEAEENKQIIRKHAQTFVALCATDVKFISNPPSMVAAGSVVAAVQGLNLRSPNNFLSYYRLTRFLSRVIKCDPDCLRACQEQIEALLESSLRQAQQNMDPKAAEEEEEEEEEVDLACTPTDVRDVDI
LQLRRQLSFSERS [D12R]: -0.0699
LQLARQLSFSEDS [R4A]: 0.976
LQLRRQLSFIEDS [S10I]: -0.0875
LQLRRQLSFNEDS [S10N]: 0.359
LQLRRDLSFSEDS [Q6D]: -0.155
LQLRRQLSISEDS [F9I]: -0.363
LQLDRQLSFSEDS [R4D]: 0.317
LQLRRQVSFSEDS [L7V]: 0.0499
LQLRRQSSFSEDS [L7S]: -0.0624
LQLRVQLSFSEDS [R5V]: 0.156
LQLRRQTSFSEDS [L7T]: -0.155
LQLRRQLSFMEDS [S10M]: 0.13
LQLRRQLSFGEDS [S10G]: 0.698
LQLRRQLSYSEDS [F9Y]: -0.0265
LQLRRQLFFSEDS [S8F]: 0.113
LQLRRQLSFSELS [D12L]: 0.79

Study 4
Target: ABI1, truncated, D143A, DHFR fusion (Arabidopsis thaliana)
Technique: DHFR PCA, deep sequencing
Sample: yeast
Notes: methotrexate growth selection, single substitutions
Together with: (+)-ABA 2500 µM
Reference: wild-type fitted maximum
Direction: higher = stronger binding
Measurement: relative binding score
Starting sequence: PYL1, truncated, DHFR fusion (Arabidopsis thaliana); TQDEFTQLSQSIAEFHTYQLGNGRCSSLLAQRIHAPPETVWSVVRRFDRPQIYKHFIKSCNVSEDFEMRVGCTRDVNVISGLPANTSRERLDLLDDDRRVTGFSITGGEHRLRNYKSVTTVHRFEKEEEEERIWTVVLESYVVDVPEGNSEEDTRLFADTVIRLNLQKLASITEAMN
T6V: 106%
V145G: 40.8%
T173H: 96.1%
L82A: 86.7%
S9G: 102%
Q167A: 97.1%
L112W: 31.3%
G107T: 94.3%
P50F: 1.07%
V70R: 89%
E89Y: 3.55%
T86D: 95.7%
F56E: -7.25%
R163T: 88.4%
S140F: 34.2%

Study 5
Target: Histone acetyltransferase KAT6A, winged helix 1, GST fusion (KAT6A, Homo sapiens, UniProt Q92794, residues 1-85)
Technique: protein binding microarray
Form: double-stranded DNA, one strand shown
Sample: in vitro
Tested at: not given
Notes: 8-mer, flanks averaged, mean of 2 arrays, mostly near background
Reference: not given
Direction: higher = stronger binding
Measurement: E-score
Residues (chain): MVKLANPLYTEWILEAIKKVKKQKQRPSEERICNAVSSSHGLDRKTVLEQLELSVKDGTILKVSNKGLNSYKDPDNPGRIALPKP
AATTTTAT: 0.0418
GAAGGCGA: 0.14
AAGGCAGT: -0.155
AATAATAC: -0.135
AAGCCAAA: -0.123
ATTTGAGA: 0.0165
AATCAATG: 0.0216
ATCTCTAA: -0.0882
ACAAGCAC: 0.0622
GATTAGGC: -0.164
GTATGCGA: 0.209
ACGAAACT: -0.124
CGAAAACC: 0.137
AAGCGTCT: 0.162
ACGGGACG: 0.301
GACATCAC: 0.101
CAATGCGA: -0.0469
GCCGGGTA: 0.283
ACAACGAG: -0.255
CGCTTCCA: 0.203
AAGGGGAC: -0.108
CTACTGGA: -0.16
GCCACAGA: -0.0546
CAACGTCA: -0.0989

Study 6
Target: RING finger protein unkempt homolog, zinc fingers 1-6, GST-SBP tag (UNK, Homo sapiens, UniProt Q9C0B0, residues 30-357)
UniProt Q9C0B0, sequence (30-357, looked up): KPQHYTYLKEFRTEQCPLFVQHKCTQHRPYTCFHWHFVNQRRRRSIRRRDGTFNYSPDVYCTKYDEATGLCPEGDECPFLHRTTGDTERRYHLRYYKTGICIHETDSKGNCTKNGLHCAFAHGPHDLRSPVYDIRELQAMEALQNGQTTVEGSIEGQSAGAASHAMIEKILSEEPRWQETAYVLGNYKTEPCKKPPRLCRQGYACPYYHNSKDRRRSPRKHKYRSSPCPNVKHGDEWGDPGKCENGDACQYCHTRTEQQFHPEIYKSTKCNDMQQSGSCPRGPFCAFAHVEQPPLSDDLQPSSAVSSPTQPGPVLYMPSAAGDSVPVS
Technique: RNA Bind-n-Seq
Form: RNA
Sample: in vitro
Tested at: not given
Notes: RNA with constant flanks, human-mouse chimeric sites, ends assumed
Reference: input RNA pool
Direction: higher = stronger binding
Measurement: bound/input enrichment
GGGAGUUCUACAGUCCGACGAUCAAAGUGAUGACUAUGUUUGUCCAACGACAGGUAUUUUCGGAGAGCAAAGAUGAGAUUGCGUUAGUCCUCUAUGGCACAGAUGGCACUGACAAUCCCCUUGCUGGCAAGGACCAGUAUCAGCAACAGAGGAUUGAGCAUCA: 0.163 ratio
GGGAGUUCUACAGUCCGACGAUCGGUGGGGUGGUCAUUGCCGUUUGAGCUGCUGAUUUUCUUAUGAAUCAUUCAAAACUCUCGUGUAGGGUUGACAAUGUGGGGGGGUGGGAAAUCUAGCUUAUUCUUUUAUUUUCAAGUCCACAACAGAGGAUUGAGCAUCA: 6.69 ratio
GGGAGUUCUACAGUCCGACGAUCGUUGCCAGCUUCCGGUUCCGUUGGGCUCGGUUCUCUCCUGAGCUACGUGUCUCUACGCUCUCAAUCCGCCAUCCAACGGCAGUCAUGGAUCAGGUAAAGUUUGUGGAGCCCAGCCGGCAGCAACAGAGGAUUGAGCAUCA: 0.136 ratio
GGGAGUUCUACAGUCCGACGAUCAACUUCGUGCAUCGGUUUCCUUUUGUAGCUGUUUCAAUUGGCUUCCUUGUGAAUAAAGAGAUGGAGUUUGGAAUUGUGUACAGUUGUGUGGAAGAUAAGAUGUACACCGGCAGGAAAGGGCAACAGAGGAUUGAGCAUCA: 0.427 ratio
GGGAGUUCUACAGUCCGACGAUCCUCAGAGAUGUGGCAUAUCAGUAUGUGAAAAAGGGGGCUCGUAUAUUUUUGGAAGGGAAAGUGGACUAUGGCGAGUACAUGGAUAAAAACAAUGUGAGGCGACAAGCAACAACAAUCAUACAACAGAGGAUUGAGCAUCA: 0.353 ratio
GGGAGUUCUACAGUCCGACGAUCAGAGCCCAGGAUGUUGAUGCUACAAAUCCAAAUUACGAAAUUAUGUGUAUGAUCAGAGACUUUAGAGGGAGCUUGGAUUACAGACCCCUAACAACAGCAGAUCCUAUUGAUGAACAUAGGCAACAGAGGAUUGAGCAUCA: 0.566 ratio
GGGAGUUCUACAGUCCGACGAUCAAAUCGUGUGUGUCCAAUAUUGAAAGUGCUUUAUCUACACUCCAGUAUGUAAGCAGCAUAGUAGUUUCUUUAGAGAAUAGGUCAGCCAUUGUGAAGUACAAUGCAAGCUUAGUCACUCCACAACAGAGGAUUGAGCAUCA: 10.4 ratio
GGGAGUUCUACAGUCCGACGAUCCCAAUUGUGGAGCAGUACUUGAAGACAAAGAAAAAUUCUAAUAAUUUAAUCAUGAAAUACAUUAGCUGCCGCCUGCUGACACUCAUCAUUAUACUGUUAGCGUGUAUCUACCUGGGCUAUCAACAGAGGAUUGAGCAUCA: 0.679 ratio
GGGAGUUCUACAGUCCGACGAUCUGUGAACUGUCUCUUGAGAUCUAAAAAAAACAUGAUUUUUCCUGGCACAUAUUCCAAAGCAUAGACUUUGUUGCCUGCUGCUUAUUGUCUAAUUUACAGGGAUAUUUAAUUUUGUCAGGUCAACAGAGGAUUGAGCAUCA: 0.217 ratio
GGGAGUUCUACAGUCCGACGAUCCACAGAGCAGCACCUACCCCCUCCUCCUUUCCACACCUGCAAACUCUUUUACUUGGGCUGCAUAGUUAGUGUAAUUACAUCUCAGCUUUGAGGGCUCCUGUGGCAAAAUACCCGGAUAAACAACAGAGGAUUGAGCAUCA: 2.7 ratio
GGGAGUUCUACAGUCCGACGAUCGAAUCCUACUCAGGCGGUCCCACAACAACCAAGCUCACAGCAGCAGCAUCUUAGUCACAGUAGGGUAGUUUUGGGGCUCUGUGGCCAGGGUUUUAUUCAUGUGCAGGUUUGGAAAAUGUACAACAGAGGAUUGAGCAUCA: 0.988 ratio

Mixed results
PhoQ, residues 284 288 289 292 302 303 SCCLKL — fold induction (PhoP, residues 12 14 15 18 19 LHHVQ (Escherichia coli, UniProt P23836); Sort-seq, refers to: YFP reporter; E. coli; PhoQ-PhoP variant library, together with: 10 µM Mg2+; reference: high Mg2+ state, higher = stronger signaling): 0.897

Some of these lines once more (study 3):
LQLRRQLSFSERS [D12R]: -0.0699
LQLARQLSFSEDS [R4A]: 0.976
LQLRRQLSFIEDS [S10I]: -0.0875
LQLRRQLSFNEDS [S10N]: 0.359
LQLRRDLSFSEDS [Q6D]: -0.155
LQLRRQLSISEDS [F9I]: -0.363
LQLDRQLSFSEDS [R4D]: 0.317
LQLRRQVSFSEDS [L7V]: 0.0499
LQLRRQSSFSEDS [L7S]: -0.0624
LQLRVQLSFSEDS [R5V]: 0.156
LQLRRQTSFSEDS [L7T]: -0.155
LQLRRQLSFMEDS [S10M]: 0.13
LQLRRQLSFGEDS [S10G]: 0.698
LQLRRQLSYSEDS [F9Y]: -0.0265
LQLRRQLFFSEDS [S8F]: 0.113
LQLRRQLSFSELS [D12L]: 0.79
